Assay results collected from several papers.
Each line is one published result; not all experiments were run side by side.
Method: steady-state kinetics
B1: TBM M536C (Drosophila melanogaster, UniProt Q86B61); chain TFMPVMLLLLMATLLTRPLSAFSNRLSDTKLHEIYLDDKEIKLSWMVDWYKQEVLFHLQNAFNEQHRWFYLGFSKRGGLADADICFFENQNGFFNAVTDTYTSPDGQWVRRDYQQDCEVFKMDEFTLAFRRKFDTCDPLDLRLHEGTMYVVWARGETELALEDHQFALPNVTAPHEAGVKMLQLLRADKILIPETELDHMEITLQEAPIPSQETTYWCHVQRLEGNLRRRHHIVQFEPLIRTPGIVHHMEVFHCEAGEHEEIPLYNGDCEQLPPRAKICSKVMVLWAMGAGTFTYPPEAGLPIGGPGFNPYVRLEVHFNNPEKQSGLVDNSGFRIKMSKTLRQYDAAVMELGLEYTDKMAIPPGQTAFPLSGYCVADCTRAALPATGIIIFGSQLHTHLRGVRVLTRHFRGEQELREVNRDDYYSNHFQEMRTLHYKPRVLPGDALVTTCYYNTKDDKTAALGGFSISDECCVNYIHYYPATKLEVCKSSVSEETLENYFIYMKRTEHQHGVHLNGARSSNYRSIEWTQPRIDQLYTMYMQEPLSMQCNRSDGTRFEGRSSWEGVAATPVQIRIPIHRKLCPNYNPLWLKPLEKGDCDLLGECIY
B2: enzyme (Salmonella enterica, UniProt P31570); chain MSDERYQQRQQKVKDRVDARVAQAQEERGIIIVFTGNGKGKTTAAFGTAARAVGHGKNVGVVQFIKGTWPNGERNLLEPHGVEFQVMATGFTWETQNREADTAACMAVWQHGKRMLADPLLDMVVLDELTYMVAYDYLPLEEVISALNARPGHQTVIITGRGCHRDILDLADTVSELRPVKHAFDAGVKAQMGIDY
B3: enzyme (Phocaeicola vulgatus, UniProt A6KWY2); chain MNYNEIGKTGMRVSNLSFGASSLGGVFHDIREAEGIKAVYTAVENGMNFIDVSPYYGHYKAETVLGKALKEIPRDKYYLSTKVGRYGKDGVNTWDYSGKRATESVYESLDRLHIEYIDLINVHDVEFSDMNQVVNETLPALVELKKKGIVGHVGITDLQLENLKWIIDHSEPGTVESVLNFCHYCLNDEKLTDYLDYFESKNIGIINASPLSMGLLSQRGVPAWHPAPQSLVEACRKAVQHCLSKNYPIEKLAIQYSVSNPRIATTLFSSANPDNVLKNITYAEEPIDWNLVKEVQEIIGKQMRISWANS
B4: Pck1 A467G (Rattus norvegicus, UniProt P07379); chain MPPQLHNGLDFSAKVIQGSLDSLPQEVRKFVEGNAQLCQPEYIHICDGSEEEYGRLLAHMQEEGVIRKLKKYDNCWLALTDPRDVARIESKTVIITQEQRDTVPIPKSGQSQLGRWMSEEDFEKAFNARFPGCMKGRTMYVIPFSMGPLGSPLAKIGIELTDSPYVVASMRIMTRMGTSVLEALGDGEFIKCLHSVGCPLPLKKPLVNNWACNPELTLIAHLPDRREIISFGSGYGGNSLLGKKCFALRIASRLAKEEGWLAEHMLILGITNPEGKKKYLAAAFPSACGKTNLAMMNPTLPGWKVECVGDDIAWMKFDAQGNLRAINPENGFFGVAPGTSVKTNPNAIKTIQKNTIFTNVAETSDGGVYWEGIDEPLAPGVTITSWKNKEWRPQDEEPCAHPNSRFCTPASQCPIIDPAWESPEGVPIEGIIFGGRRPAGVPLVYEALSWQHGVFVGAAMRSEATAGAEHKGKVIMHDPFAMRPFFGYNFGKYLAHWLSMAHRPAAKLPKIFHVNWFRKDKNGKFLWPGFGENSRVLEWMFGRIEGEDSAKLTPIGYVPKEDALNLKGLGDVNVEELFGISKEFWEKEVEEIDKYLEDQVNADLPYEIERELRALKQRISQM
B5: protein Y93T (Thermus thermophilus, UniProt Q5SKR5); chain MSAPKPFVIGIAGGTASGKTTLAQALARTLGERVALLPMDHYYKDLGHLPLEERLRVNYDHPDAFDLALYLEHAQALLRGLPVEMPVYDFRATTRSPRRTPVRPAPVVILEGILVLYPKELRDLMDLKVFVDADADERFIRRLKRDVLERGRSLEGVVAQYLEQVKPMHLHFVEPTKRYADVIVPRGGQNPVALEMLAAKALARLARMGAA
B6: protein (Stereum hirsutum, UniProt P9WEW2); chain MAVATSVATPVPTPAYSAGRAPAKEKKIYLPDTLAEWPWPRAINPHYAEAKEESQAWAASFNAFSPKAQHAFNRCDFNLLASLAYPLATKHGCRSGCDLMNLFFVIDEYSDIAPVEEVRQQKDIVMDALRNPHKPRPEGEWVGGEVARQFWALTITNASAQSQKHFIETFDEYLDSVVQQAEDRSESRIRDIQSYIDVRRNTIGAKPSFALLELDMDLPDEVLAHPTIQSLSLATIDMLCLGNDIVSYNLEQARGDASHNIITIVMNELNLDVNGAMRWVGDFHKQLEKQFFEAFNNLPKWGNAELDAQIAVYCDGLGNWVRANDQWSFESERYFGARGLEIMETKTLAMMPIQRTEALGPQLVDDSIL
B7: enzyme (Bifidobacterium adolescentis, UniProt A1A3M6); chain MIRRYLNTVEESKMISGAGAMNPVCPREDGRLEWGNGVVSMLFDTAGDSPVRLCNVAGRGMGPIGGRVTDDGRTVLERDPRPIVEVRAANTGSQDNRLTLIATVAGSVLRFVSAAASEPEEGSAEPYRLEIVQFASYAELEPHGRAFEPTAAERAEAAAQPSPETVRHADATAGLVVTSVFEAFPGLSAVRTYTRLSSARPLPIEAVSSLNLTVPMRVNCGKIDHSRVFWGDSAWAVENDWRSRPLRDVSVRNRNQVINPGQSSSRFAMSSASTWSTGVHEPAGIVQVEGSRRQSRDFSVMWQIEHNGPWEWEIGEDDPGLHISAFGPEYQDHHWYTELGEGHDFESVPVSFAISAGDWQQSVAEMTLQRRALRAAKARELGRSEQFERTQGLVIYNDYMNTLFGDPRLEKELPLVEGAARVGADIFCIDAGWYDSTDGGWWDMVGEWQASTNRFGEAGLKGLADTIRAHGMGLGLWLEPEVIGVKSPLAQSLPDDAFFQRHGVRVCDSGRYLLDFRSPAAREHVTRTVNRLIDDFGAVFFKFDYNTVPGVGTDLDAESAGAGLLGHCRAYLDWLDDLRRRHPDVMIENCGSGAMRADYAQLQRLDLQSTSDQCDPLIYAAIAAGAGLTILPEQQGNWGYAQQEMDDETAVFTLATGILGRLYLSGFIDRMDEHRLALVRDAVALHRRVLTEQQELVPFWPARLPDFDGDWLVVGLRHPSFLPSEDDDSCDYIIVWRRGGTPSVNVPLSEDCHIEQIFPNPAVPEHAPDAKPWTVERMDPETVRLNAATSKQPSARIFAIR
Chain of UniProt Q9LTH2 (whole entry, looked up): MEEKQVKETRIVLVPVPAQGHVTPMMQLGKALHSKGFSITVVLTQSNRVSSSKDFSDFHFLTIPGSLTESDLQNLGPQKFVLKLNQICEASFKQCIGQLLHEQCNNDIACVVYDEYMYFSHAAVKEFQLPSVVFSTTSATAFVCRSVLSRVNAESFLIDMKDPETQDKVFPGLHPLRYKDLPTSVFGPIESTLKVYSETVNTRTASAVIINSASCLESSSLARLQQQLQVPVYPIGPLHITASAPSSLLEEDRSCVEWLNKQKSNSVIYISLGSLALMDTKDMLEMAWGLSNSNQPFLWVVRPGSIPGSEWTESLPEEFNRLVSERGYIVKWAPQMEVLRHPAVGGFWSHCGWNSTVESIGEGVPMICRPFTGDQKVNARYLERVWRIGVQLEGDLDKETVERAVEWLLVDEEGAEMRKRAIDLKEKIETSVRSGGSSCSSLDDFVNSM
Chain of UniProt Q29437 (whole entry, looked up): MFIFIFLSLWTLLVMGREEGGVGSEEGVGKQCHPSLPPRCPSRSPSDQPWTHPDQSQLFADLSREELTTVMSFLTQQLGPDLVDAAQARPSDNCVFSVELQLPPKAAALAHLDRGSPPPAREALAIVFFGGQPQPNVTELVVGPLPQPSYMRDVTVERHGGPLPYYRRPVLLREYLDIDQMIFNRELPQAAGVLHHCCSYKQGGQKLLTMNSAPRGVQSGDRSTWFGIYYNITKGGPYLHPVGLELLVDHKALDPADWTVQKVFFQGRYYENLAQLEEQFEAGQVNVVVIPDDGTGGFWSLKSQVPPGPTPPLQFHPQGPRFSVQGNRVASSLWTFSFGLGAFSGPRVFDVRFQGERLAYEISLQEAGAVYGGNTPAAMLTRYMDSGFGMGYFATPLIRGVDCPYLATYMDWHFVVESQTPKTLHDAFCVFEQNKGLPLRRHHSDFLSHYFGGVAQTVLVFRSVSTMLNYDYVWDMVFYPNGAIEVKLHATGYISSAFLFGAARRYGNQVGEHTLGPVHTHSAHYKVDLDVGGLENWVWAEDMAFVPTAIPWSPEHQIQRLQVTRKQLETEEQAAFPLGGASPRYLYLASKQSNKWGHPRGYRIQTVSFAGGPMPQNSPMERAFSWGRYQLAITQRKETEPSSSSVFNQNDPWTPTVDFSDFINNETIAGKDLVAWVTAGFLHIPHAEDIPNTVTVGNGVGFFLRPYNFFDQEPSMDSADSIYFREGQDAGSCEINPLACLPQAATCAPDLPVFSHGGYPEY

Substance | substrate | setting | Km [µM]
B1 (TBM M536C) | NCCc1ccc(O)cc1 | pH 6, 35 °C, KCl 0.1 M, apparent Km, apparent, with: ascorbate 50 mM, CuSO4 15 µM | 4600
enzyme (Arabidopsis thaliana, UniProt Q9LTH2) | O=c1ccn([C@@H]2O[C@H](CO[P@@](=O)(O)O[P@@](=O)(O)O[C@H]3O[C@H](CO)[C@@H](O)[C@H](O)[C@H]3O)[C@@H](O)[C@H]2O)c(=O)[nH]1 | pH 7.5, 25 °C | 8.75
B2 (enzyme) | Nc1ncnc2c1ncn2[C@@H]1O[C@H](COP(=O)(O)OP(=O)(O)OP(=O)(O)O)[C@@H](O)[C@H]1O | pH 8, 37 °C | 7
B3 (enzyme) | NC(=O)c1ccc[n+]([C@@H]2O[C@H](COP(=O)(O)OP(=O)(O)OC[C@H]3O[C@@H](n4cnc5c(N)ncnc54)[C@H](OP(=O)(O)O)[C@@H]3O)[C@@H](O)[C@H]2O)c1 | pH 8, 30 °C, cofactor varied | 3
B4 (Pck1 A467G) | Nc1nc2c(ncn2[C@@H]2O[C@H](COP(=O)(O)OP(=O)(O)O)[C@@H](O)[C@H]2O)c(=O)[nH]1 | pH 7.5, 25 °C | 70
PGDH1 (Oryza sativa, UniProt B7F6I8) | O=C(O)[C@H](O)COP(=O)(O)O | pH 9, 25 °C, NaCl 0.1 M, apparent, with: NAD+ | 175
protein (UniProt M4ZR24) | NC[C@H]1O[C@@H](n2ccc(=O)[nH]c2=O)[C@H](O)[C@@H]1O | phosphorolysis, single substrate, with: phosphate | 820
enzyme (Babesia duncani, UniProt A0AAD9PLN9) | C[S+](CCCN)C[C@H]1O[C@@H](n2cnc3c(N)ncnc32)[C@H](O)[C@@H]1O | pH 7.5, 37 °C | 33.5
Plasma amine oxidase (Bos taurus, UniProt Q29437) | NCCOc1ccc2cc(CN)ccc2c1 | pH 7.2, 30 °C | 0.122
B5 (protein Y93T) | Nc1ccn([C@@H]2O[C@H](CO)[C@@H](O)[C@H]2O)c(=O)n1 | pH 7.2, 25 °C, KCl 100 mM, with: ATP 100–200 µM | 587
B6 (protein) | CC(C)=CCC/C(C)=C/CC/C(C)=C/CO[P@@](=O)(O)OP(=O)(O)O | pH 8, NaCl 200 mM, with: FPP 1–100 µM | 1.52
B7 (enzyme) | O=[N+]([O-])c1ccc(O[C@H]2O[C@H](CO)[C@H](O)[C@H](O)[C@H]2O)cc1 | pH 5, 40 °C | 5960
